Published values pooled from the literature.
Each numbered part is a random draw from the data of one study; scales do not carry over between parts.

Study 1
Target: Phosphate system positive regulatory protein PHO4, full length, GST-tagged (PHO4, Saccharomyces cerevisiae, UniProt P07270, residues 1-312)
Technique: competition protein-binding microarray
Molecule type: double-stranded DNA, one strand shown
Sample: in vitro
Concentration: 2 µM
Notes: whole 60-bp probe, lowest competitor level
Added: Cbf1 competitor, 0.05 µM
Direction: higher = stronger binding
Measurement: fluorescence intensity
Constant ends, left off below: … GTCTTGATTCGCTTGACGCTGCTG
Construct (chain): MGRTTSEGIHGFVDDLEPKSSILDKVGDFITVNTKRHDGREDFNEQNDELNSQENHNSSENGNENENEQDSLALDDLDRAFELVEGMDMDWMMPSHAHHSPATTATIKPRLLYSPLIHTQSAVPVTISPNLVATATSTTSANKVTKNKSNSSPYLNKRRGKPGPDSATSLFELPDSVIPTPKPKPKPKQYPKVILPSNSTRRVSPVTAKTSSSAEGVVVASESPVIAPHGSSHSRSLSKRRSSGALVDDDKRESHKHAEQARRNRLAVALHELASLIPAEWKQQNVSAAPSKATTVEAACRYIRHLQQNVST
ATACAGCCCACTGCACACATGGTGATAAAGAGAATT: 9390 a.u.
GGCAATAGGCTTTCTCTCGTGCTGTACCCCTAATGT: 8170 a.u.
CTGTGCCACCATTTGCACGTTGGCATCCGCGTCCTT: 12700 a.u.
ACACCCGTACACCACCATGTGCGTTATTGAAAAACT: 13700 a.u.
AAATTACTAAGTTGCCGGGTGGGTGACGCCGTATGA: 4600 a.u.
CATACCCAACCTTGACGTGTGGGTGAAGATATTTGT: 6370 a.u.
GAGGAGACACACCGTCACGTGTTTTGCCATTTTGTA: 15400 a.u.
CGTCCTAGTGATTGTCACTCTACTTCCATGAGGAAG: 4260 a.u.
TCAATAAAATCAAGTCATTCATTGATACGAAGTTGA: 3090 a.u.
AGCGCCTGCGCCCACCACGTGCTGGCAAGAATTGGG: 17400 a.u.
ACTATAAAGAACTGTCACATGACGATACATCCAAGC: 7620 a.u.
TGCGCAACAACTTGCCCAGTGGGTGTATGTCTAGAA: 4330 a.u.
CAGTCCGCCTCCCGTCACGTGATGGAGTAAGAAATT: 12200 a.u.
GAAAGCACTGGCAAGAACGTGTTGAAGTGCACTTCG: 11000 a.u.
CAAATGGGTGGGTGGCGCGTGGCAGGGACTTCCCTA: 9810 a.u.
CGTCCTAGTGATTGTAACGTGGGTGCCATGAGGAAG: 11200 a.u.
GGTTTTTGAAATCATACCTGCCAAGCTTGCTGCACT: 3330 a.u.
CGGGGTTAAGTTTTTCACGTGCATTGCTTGCAGCAG: 15100 a.u.
AAAGCGGTAATTTGTCACCGAACTTCACATATCTAT: 3160 a.u.

Study 2
Target: RNA binding protein fox-1 homolog 2, RRM domain, GST-SBP tag (RBFOX2, Homo sapiens, UniProt O43251-10, residues 100-194)
Technique: RNA Bind-n-Seq
Molecule type: RNA
Sample: in vitro
Concentration: 365 nM
Notes: natural RNA segment, single round, ends assumed
Baseline: no-protein control
Direction: higher = stronger binding
Measurement: RBNS enrichment (R)
Constant ends, left off below: GGGAGUUCUACAGUCCGACGAUC … UGGAAUUCUCGGGUGCCAA
Construct (chain): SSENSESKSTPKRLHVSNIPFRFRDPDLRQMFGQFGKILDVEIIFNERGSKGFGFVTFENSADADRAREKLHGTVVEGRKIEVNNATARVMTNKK
CUUUAUUGAUCUUUUGCAUGUCCCCCAAAGCCAGAAUCUGCUCAUGGAGGAAGGAAGGCUAAGAACUGUCCUUGAGGAACUUCAUCAGUAACUCUGGUAAAGCAUCCUGU: 6.71
ACAAUGAGGACAGUGAGCUCCAGCCACUGUGGCCAUGGUGCCAUGUCCAUCCCCAGCCUCCCAGGGAAGUGCUGCGCUGUUUGUAUUUGUGGUCUGGGCUUUUCUGCCUA: 0.401
UGCAUUAUAAUUUUAUCCUAACCUCCAAAGAUAUUUGCACUGCUUUUAAUUACUGCUGUAUAUUUGUUGAUUUUGGAGUUACAACUGUGGUGAUAGAAAAUUGAGUUGAU: 0.36
GUGGAGACCACCGGGGACAGGCUUGCGGACGCCGGCUGUUCUUCCCGCCACGAUCUUUCUGUGGUAGCGGCCAGCAGAAGACAUGGCCUGCUCCCCACUCCCUUUCCCCA: 0.722
CGAGGGUCCCCUGUGGCACCUAGCAUGGUGCACAGCACAUUAGAAGUGCUCAAAAACAUCUGAUGACUGACUAAAGAUGCUAGGCGUGACACCGUUCCCUCCAAAAGCAG: 0.209
UAUUCAGUGUUUAUUUCCUUAAACAGACUUUGUUAAUUUAGGAAAUAUCUCCAAGUGGAAACGUGCUAACUUUCUGUAAAUCUUAAAUAAAAGGUGCUGUUCCUUCCUCU: 0.193
AUCAAAUCAUUUGCAUUCCCACAGCAUCCUGAAUACCGACUACCUCUUCACUUGCUAAAGCAGCUAAACUGUGAAGCUCUAAGUGGUUUGGGUUUGUUGUUUAACCUUAG: 0.364
AGAAAACCCGUUUAGGGAGAAGAAGUUUUUCUGUGCCAUCCUUUAAGUCUUUGAGAGGGGCCUGAAGAGCCUCCGGGCUCCUGGGACAUUGAUGUAGAGUUUUUAGUGAA: 0.648

Study 3
Target: RING finger protein unkempt homolog, zinc fingers 1-6, GST-SBP tag (UNK, Homo sapiens, UniProt Q9C0B0, residues 30-357)
UniProt Q9C0B0, sequence (30-357, looked up): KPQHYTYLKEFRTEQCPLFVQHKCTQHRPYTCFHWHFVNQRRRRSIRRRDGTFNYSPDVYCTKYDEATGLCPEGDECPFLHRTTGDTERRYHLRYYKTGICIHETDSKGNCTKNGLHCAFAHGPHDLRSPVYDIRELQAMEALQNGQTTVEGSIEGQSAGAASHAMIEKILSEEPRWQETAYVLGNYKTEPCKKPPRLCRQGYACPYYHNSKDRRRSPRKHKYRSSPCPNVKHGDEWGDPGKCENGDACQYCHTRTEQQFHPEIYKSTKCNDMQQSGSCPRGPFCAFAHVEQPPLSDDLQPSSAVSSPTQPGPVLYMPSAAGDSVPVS
Technique: RNA Bind-n-Seq
Molecule type: RNA
Sample: in vitro
Concentration: not given
Notes: RNA with constant flanks, human and mouse sites, ends assumed
Baseline: input RNA pool
Direction: higher = stronger binding
Measurement: bound/input enrichment
Constant ends, left off below: GGGAGUUCUACAGUCCGACGAUC … CAACAGAGGAUUGAGCAUCA
GCGGUCCCUACAGUCCUGGUGACUCCCUUAGGUGCCCUUGGAGUACCGUUUGGGUCCAUUUUAGCUUCUUACCUUCUGAAGGAAAAGCUCAACAUCUUGGGCAAGUUGGGCUGUCUGCUA: 1.65 ratio
CCUCCUUUAUUAAUUUUCUUCCAAAGACAAGGGAAGGCCGGCGGACGACCUGUGGGCCCUUUAGUUACCAAGUCGCAGUGGUACGCGGAGGACCGAGACUAGGAACGGACCUUGACCUUU: 0.411 ratio
GCUGUCUGAACUGAACAGACCGAAGAGAUGUGCUAGAGAGAAGCCGCCUCCACAGUCACCCAUUUCAUUGCUGUCUACGAAAGAGACGUGAGACUCACACGCUGUUCUCGCUUUCUCCCC: 0.165 ratio
CUGGUCUUGGUGAACACACUUUUCUUUUUUUUUCUUUUUUCUUUUUUUUUUCCUUUUUUUUUUUUUUUUUUUUUACCCCAGACACCUCCUUUUUGUAGAAAGCCAAAUAAAAUAUAUACA: 2.64 ratio
CCCUGGGCCUGCCCCUUGCCACCAACCUAACUGUGAGUGUAGGUGCCCCCCUCAGUCUCCCUUCUGCCGUAGGACCAACAACACCCAGGUUUGGAGAUUGAAAGAAGGGGAGGCCUAGGA: 0.203 ratio
GCUCAGGCUUUCCCAGUGAGCGAGGCCGGCGCUUUAUAACAGCAGCCUGGGCGGCUCCACCGGCUGUUUUUUCGGCUCCUCGGGUUUGUGUCUGCAGGUGCCAUCCGCGAAGAUGCAGCU: 0.17 ratio
UUGAAAGGUAAUGGGAGCCCAGUCAAUGGGAGUUCUCAGCAGGGAACCUCAAAUCCUUCCCUAGGUUCAACUAUUCCAAGUCUUCAGAAUUCAUUAAAUGGAUCUUCUGCUGGCAGAAAG: 0.289 ratio
GAUUAUACAAUUCCCGAUGAGUAUAGAAUCGGACCAUAUCAGCCUAAUGUUCCUGUUGGUAUAGACUAUGUGAUACCUAAAACAGGGUUUUACUGUAAGCUGUGUUCACUCUUUUAUACA: 0.11 ratio

Study 4
Target: Interferon regulatory factor 7, full length, phosphomimetic (IRF7, Homo sapiens, UniProt Q92985, residues 1-503, S101K/S471D/S472D/S475D/S476D/S477D/S483D/S484D/S487D)
Technique: protein-binding microarray
Molecule type: double-stranded DNA, one strand shown
Sample: in vitro
Concentration: 250 nM
Notes: 60-bp whole probe
Added: salmon DNA 0.4 mg/ml
Baseline: random background probes
Direction: higher = stronger binding
Measurement: log fluorescence
Constant ends, left off below: GCCTAGCAC … GTCTTGATTCGCTTGACGCTGCTG
Construct (chain): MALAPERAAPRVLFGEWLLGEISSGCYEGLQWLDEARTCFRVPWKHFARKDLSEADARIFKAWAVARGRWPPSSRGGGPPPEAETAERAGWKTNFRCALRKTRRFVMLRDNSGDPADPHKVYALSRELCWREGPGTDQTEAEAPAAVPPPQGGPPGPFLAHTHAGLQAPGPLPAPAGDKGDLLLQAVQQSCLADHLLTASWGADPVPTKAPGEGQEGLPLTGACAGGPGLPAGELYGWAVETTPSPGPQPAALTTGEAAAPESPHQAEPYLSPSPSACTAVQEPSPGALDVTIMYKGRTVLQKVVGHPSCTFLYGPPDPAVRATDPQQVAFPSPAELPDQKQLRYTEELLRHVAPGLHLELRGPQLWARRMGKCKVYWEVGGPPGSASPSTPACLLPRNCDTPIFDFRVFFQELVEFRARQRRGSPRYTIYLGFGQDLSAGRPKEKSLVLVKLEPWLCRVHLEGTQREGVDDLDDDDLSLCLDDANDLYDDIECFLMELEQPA
TTAGATTTCGGGTTCCGATTAGTGCTA: 3.12 z-score
TCAGTAAGCAAAAATGAACTGTGCTAG: -0.394 z-score
GACGGTTTCGGTTCCGGGAAGTGCTAG: 12.9 z-score
TCATTTCTGTTGTCTGTGACTGTGCTA: 0.969 z-score
GACGGACTGAGACTGGAGACGTGCTAG: -0.648 z-score
TTAGGACTGGGTATCGCTTAGTGCTAG: 0.252 z-score
ATAGATCTCAGTCTCGATTAGTGCTAG: 1.49 z-score
TTAGGTATCCGTATCCTTTAGTGCTAG: 0.295 z-score
GACGGACTGCTACTGGTGACGTGCTAG: -0.751 z-score
GCCGATATCAGACTGGAGACGTGCTAG: -0.154 z-score
TTAGGTATCGATTTCGGTTAGTGCTAG: 5.24 z-score
GGTCAGTCAGGTCACTTCTGGTGCTAG: -0.871 z-score
TTAGATCTCAGTCTCGATTTGTGCTAG: 5.11 z-score
GACGGTTTCGACTACCGGGACGTGCTA: 5.45 z-score
TCAAGAAAGAAAACGGGGAGGTGCTAG: 0.172 z-score
TTAGGACTGGACTATGGGTTAGTGCTA: -0.384 z-score
TCATTTCTCTGCTCTTTTACTGTGCTA: 1.91 z-score
TTAGGTATCCACTATCGGTTAGTGCTA: -0.267 z-score
TTAGGCCTGGGTCTCGGTTAGTGCTAG: 1.29 z-score

Excerpt of the above (study 2):
GUGGAGACCACCGGGGACAGGCUUGCGGACGCCGGCUGUUCUUCCCGCCACGAUCUUUCUGUGGUAGCGGCCAGCAGAAGACAUGGCCUGCUCCCCACUCCCUUUCCCCA: 0.722
UGCAUUAUAAUUUUAUCCUAACCUCCAAAGAUAUUUGCACUGCUUUUAAUUACUGCUGUAUAUUUGUUGAUUUUGGAGUUACAACUGUGGUGAUAGAAAAUUGAGUUGAU: 0.36
AUCAAAUCAUUUGCAUUCCCACAGCAUCCUGAAUACCGACUACCUCUUCACUUGCUAAAGCAGCUAAACUGUGAAGCUCUAAGUGGUUUGGGUUUGUUGUUUAACCUUAG: 0.364
AGAAAACCCGUUUAGGGAGAAGAAGUUUUUCUGUGCCAUCCUUUAAGUCUUUGAGAGGGGCCUGAAGAGCCUCCGGGCUCCUGGGACAUUGAUGUAGAGUUUUUAGUGAA: 0.648
CGAGGGUCCCCUGUGGCACCUAGCAUGGUGCACAGCACAUUAGAAGUGCUCAAAAACAUCUGAUGACUGACUAAAGAUGCUAGGCGUGACACCGUUCCCUCCAAAAGCAG: 0.209
UAUUCAGUGUUUAUUUCCUUAAACAGACUUUGUUAAUUUAGGAAAUAUCUCCAAGUGGAAACGUGCUAACUUUCUGUAAAUCUUAAAUAAAAGGUGCUGUUCCUUCCUCU: 0.193
CUUUAUUGAUCUUUUGCAUGUCCCCCAAAGCCAGAAUCUGCUCAUGGAGGAAGGAAGGCUAAGAACUGUCCUUGAGGAACUUCAUCAGUAACUCUGGUAAAGCAUCCUGU: 6.71
